Measurements pooled from the literature.
Each numbered part is a random draw from the data of one study; scales do not carry over between parts.

Series 1
Target: RNA binding protein fox-1 homolog 2, RRM domain, GST-SBP tag (RBFOX2, Homo sapiens, UniProt O43251-10, residues 100-194)
Technique: RNA Bind-n-Seq
Molecule type: RNA
Medium: in vitro
Concentration: 365 nM
Setting: natural RNA segment, single round, ends assumed
Baseline: no-protein control
Direction: higher = stronger binding
Endpoint: RBNS enrichment (R)
All sequences stand within: GGGAGUUCUACAGUCCGACGAUC … UGGAAUUCUCGGGUGCCAA
Residues (chain): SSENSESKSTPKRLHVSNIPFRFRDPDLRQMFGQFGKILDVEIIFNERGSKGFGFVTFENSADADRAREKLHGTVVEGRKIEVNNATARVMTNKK
AUAUUUCUUGUUUGUGAAAUUGAAACCUCUAUAGGCAUCAUAUGCUUCUUGUCUUUAACAAAGUCUUUGUCUUCUAAGAGCAACCCCGCAGUAAACAACAGAGGGGUUGC: 0.39
CCCGUUCAUGGUUGAUCUCCACGAGCAGGUGCACCAGGGACCUGUCCCUCUGUCCUACACGGUCACCACAGUGACGACCCAAGGCUUCCCCUUGCCUACAGGCCAGCACA: 0.164
AGCUAACUUCCUACAAACAUCUGCCUGGAAGAUUAGUAGAAUCCUAAUUCUAGGCUGGAAUGAGCUUCAUGAGGCUUGACAGAGGCUCACUGUCAGCCGUGGCUGGGGGC: 0.762
UGCCCCACCCCAAGCGAACGGUAAGAAGGCCUCUCUUAAGAAGGGGAGACAGAUGGCCCUAACUACUCAGUGACAGAGGCAGUUACUGUGAGAGACUUGUAGGAAUUUUU: 0.701
ACAGUGCUCCUACUCUAUCCACAUUAAGUAGCACUUUUGUGGUAGAACUGAUUCUUAAGGCAGGCCUGAAAGGCCAUUACUAAUAGAAACACAGCCUUUCCAAUCCUCUG: 0.331
AACUCUGCGCUCUAGUACUGCUGUUAAGAUACACAACUUGUUUCUUAGUUCAUAUAAUCUCGGGAUACACACACACACACACAUAUAUAUACACACACAUACGUAUACAC: 0.873
AUCCACCACAGGGUUAGGGGACAGGAAGCCUGUUCUAUUCUCAAUAAAUCUUACAAAAUUCCAAAAAGACUUUCCUGUGUCCCUCUGUCCCCCUGGGGGGAAGGGACAAU: 0.6
CCUCUCAGAUCCCUCGGUCAGCACCGUGGUGUGAGGCCCCCGGAGGCGCCCACCUGCCCAGUUAGCCCGGCCAAGGACACUGAUGGGUCCUGCUGCUCGGGAAGGCCUGA: 0.205

Series 2
Target: Centromere-binding protein 1, full length, His-tagged (CBF1, Saccharomyces cerevisiae, UniProt P17106, residues 1-351)
Chain of UniProt P17106 (whole entry, looked up): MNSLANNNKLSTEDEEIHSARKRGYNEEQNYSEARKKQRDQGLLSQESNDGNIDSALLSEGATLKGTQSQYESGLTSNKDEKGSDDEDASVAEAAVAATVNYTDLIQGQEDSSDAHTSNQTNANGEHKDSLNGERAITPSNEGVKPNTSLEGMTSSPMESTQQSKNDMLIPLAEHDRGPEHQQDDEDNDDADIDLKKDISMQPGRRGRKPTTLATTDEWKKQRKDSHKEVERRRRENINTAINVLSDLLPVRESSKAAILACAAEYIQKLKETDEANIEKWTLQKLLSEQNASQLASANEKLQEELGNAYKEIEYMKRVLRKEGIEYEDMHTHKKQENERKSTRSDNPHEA
Technique: competition protein-binding microarray
Molecule type: double-stranded DNA, one strand shown
Medium: in vitro
Concentration: 2 µM
Setting: whole 60-bp probe, lowest competitor level
Together with: Pho4 competitor, 0.05 µM
Direction: higher = stronger binding
Endpoint: fluorescence intensity
All sequences stand within: … GTCTTGATTCGCTTGACGCTGCTG
GTTCATGGAAGTGGTGGCCTGATCCATTTGCTGGTG: 73.8 a.u.
CTTTCCCGATCTTGAAGAGTGGGTGTAGCACATTTG: 71.9 a.u.
GGGTTGGACAGGTTCAGCGTGATGGTAAGCAGCACT: 99.4 a.u.
CTTCTGTAAATTTGAGGGGTGGGTGGACGCGCCCCG: 90.6 a.u.
CTGAGCAAATTCTGTGACCTGCAATTTTACTTGTTC: 85.8 a.u.
CTTTCCCGATCTTGCCCCGTGGGTGTAGCACATTTG: 91.9 a.u.
AAATTACTAAGTTGGGCCGTGGGTGACGCCGTATGA: 62.5 a.u.
GTCTTGTCTCATTGTACCGTGGGTGTCCCCACTTCA: 83.6 a.u.
CAGCGAGTTCTTTAGCACGCTTCTGTCTTTCAGCAT: 77 a.u.
GAAACAGCTGCTACCCACGATGTAGTGTTTGAAACA: 70 a.u.
CAGCGGATTCCCGAGCACATGGAGTCGCTGAACGGC: 63.5 a.u.
CAACCGCATCGGCCCAACCTGATCTTGCAATTAGCA: 54 a.u.
AAATTACTAAGTTTTCACGTGAGTTACCCCGTATGA: 923 a.u.
AAACTGGGAGAAAGTGACGTGATGGAGGAAATTATG: 97.3 a.u.
ATTTACGGTTAGTCCCACGCTATAACCCGCCGTTGT: 57.4 a.u.
AGAGGAGATCCCTGGCACGCTCACTGCGCCTTTCAA: 61.6 a.u.
TGCGCAACAACTTGTCACTGAACTTTATGTCTAGAA: 79.7 a.u.
GTTGCTGCACTTGCTTGCGTGGGTACTTTTTGTCGG: 68.8 a.u.
TGGAGAAAGATTCACCACGTTCACTCAAGATCTTCA: 78.9 a.u.

Series 3
Target: Interferon regulatory factor 3, full length, phosphomimetic (IRF3, Homo sapiens, UniProt Q14653, residues 1-427, S386D/S396D/S398D/S402D/T404D/S405D)
Technique: protein-binding microarray
Molecule type: double-stranded DNA, one strand shown
Medium: in vitro
Concentration: 2540 nM top
Setting: 60-bp whole probe
Together with: salmon DNA 0.4 mg/ml
Baseline: random background probes
Direction: higher = stronger binding
Endpoint: fitted relative affinity
All sequences stand within: GCCTAGCAC … GTCTTGATTCGCTTGACGCTGCTG
Residues (chain): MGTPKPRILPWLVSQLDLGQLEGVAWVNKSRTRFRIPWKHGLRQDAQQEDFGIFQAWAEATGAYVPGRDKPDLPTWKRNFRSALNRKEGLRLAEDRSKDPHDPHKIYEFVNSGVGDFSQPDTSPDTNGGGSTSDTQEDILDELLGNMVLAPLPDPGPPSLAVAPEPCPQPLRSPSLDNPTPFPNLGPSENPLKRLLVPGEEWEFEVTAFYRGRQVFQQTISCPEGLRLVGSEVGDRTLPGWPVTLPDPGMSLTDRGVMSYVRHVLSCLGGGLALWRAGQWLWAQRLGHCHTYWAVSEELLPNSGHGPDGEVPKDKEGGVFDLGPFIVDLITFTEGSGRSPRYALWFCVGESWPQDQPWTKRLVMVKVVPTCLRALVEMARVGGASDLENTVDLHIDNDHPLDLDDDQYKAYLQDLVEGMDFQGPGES
TTAGGACTGGGGTAGCGGTTAGTGCTA: -1.02 z-score
TCATCTTTCCCTGCCCCATGGTGCTAG: 1.85 z-score
GACGCTATCGACACTGGGGACGTGCTA: -0.294 z-score
TTCTCAACCAGTTTTCTTTTCGTGCTA: 3.24 z-score
TTAGGACTGGGGTATCAGTTAGTGCTA: -0.559 z-score
TTACGTCTCCTTATCCTTTAGTGCTAG: 2.37 z-score
GACGGTATCTACACTGGGGACGTGCTA: 0.165 z-score
TCAAATCCCACATTTGATACTGTGCTA: 0.484 z-score
CAACCTATAGGTTCAACGACGTGCTAG: 0.605 z-score
TTAGGACTGGGACCGGGTTAGTGCTAG: -0.749 z-score
TCAATATTCATTTTATTACTGTGCTAG: 1.51 z-score
TTAGATTTCGGGTATTGATTAGTGCTA: 0.976 z-score
TACGGACTGGACTTTCGGGACGTGCTA: 0.0839 z-score
TTAGGTCTCGGTTTCGGTTGGTGCTAG: 4.28 z-score
GAGGGACTGGGTCTCGGGACGTGCTAG: -1.28 z-score
TCGCCTTTTTTGTTGTTTTTGTGCTAG: 2.31 z-score
GACGGTTTCCTTATCCTGTCGTGCTAG: 8.66 z-score
TTAGGTCTCGGTTTCGATTAGTGCTAG: 4.58 z-score
ATTTCTTTCTAATTCAAAGTGTGCTAG: 3.8 z-score

Series 4
Target: Prothrombin, mature alpha-thrombin (F2, Homo sapiens, UniProt P00734)
Technique: aptamer microarray, sandwich
Molecule type: DNA with 2'F-ANA
Medium: in vitro
Concentration: 200 nM
Setting: whole 15-mer aptamer, many near background
Together with: Cy3 exosite-II aptamer, 400 nM
Direction: higher = stronger binding
Endpoint: mean fluorescence intensity
Sequence: GGTTGGTGTGGTTGG
2'F-ANA at 2 3 5 9 10: 184 a.u.
2'F-ANA at 1 2 4 7 8 9 11 13 14: 204 a.u.
2'F-ANA at 1 2 3 4 5 6 8 10 11 13 14: 62.7 a.u.
2'F-ANA at 2 3 4 5 11 13 15: 67.4 a.u.
2'F-ANA at 1 6 7 8 10 11 12 13 14: 51.1 a.u.
2'F-ANA at 1 2 4 5 6 8 9 13 14 15: 51.2 a.u.
2'F-ANA at 5 8 11 13: 62.1 a.u.
2'F-ANA at 2 3 4 5 7 8 10 13 15: 48.4 a.u.
2'F-ANA at 3 4 6 9 10 12 13 14: 281 a.u.
2'F-ANA at 6 8 10 13 15: 146 a.u.
2'F-ANA at 2 3 5 6 11: 83.8 a.u.
2'F-ANA at 1 5 6 7 11 12 13 15: 67.6 a.u.
2'F-ANA at 1 2 4 5 6 9 10 11 12: 55.6 a.u.
2'F-ANA at 1 2 4 5 6 7 8 10 12: 53.7 a.u.
2'F-ANA at 2 3 5 6 7 9 10 11 12 13 14 15: 48.5 a.u.
2'F-ANA at 2 3 4 5 6 9 11 12 14: 52.1 a.u.
2'F-ANA at 1 5 7 11 13: 51.1 a.u.
2'F-ANA at 2 3 8 9 11 12 14: 457 a.u.
2'F-ANA at 1 3 4 5 8 9 10 12: 53.2 a.u.
2'F-ANA at 1 2 3 4 7 9 10 11: 59.1 a.u.

Some of these lines once more (series 2):
CAGCGGATTCCCGAGCACATGGAGTCGCTGAACGGC: 63.5 a.u.
AAATTACTAAGTTGGGCCGTGGGTGACGCCGTATGA: 62.5 a.u.
TGGAGAAAGATTCACCACGTTCACTCAAGATCTTCA: 78.9 a.u.
GGGTTGGACAGGTTCAGCGTGATGGTAAGCAGCACT: 99.4 a.u.
ATTTACGGTTAGTCCCACGCTATAACCCGCCGTTGT: 57.4 a.u.
AAATTACTAAGTTTTCACGTGAGTTACCCCGTATGA: 923 a.u.
CTTCTGTAAATTTGAGGGGTGGGTGGACGCGCCCCG: 90.6 a.u.
TGCGCAACAACTTGTCACTGAACTTTATGTCTAGAA: 79.7 a.u.
CAACCGCATCGGCCCAACCTGATCTTGCAATTAGCA: 54 a.u.
CTTTCCCGATCTTGCCCCGTGGGTGTAGCACATTTG: 91.9 a.u.
AAACTGGGAGAAAGTGACGTGATGGAGGAAATTATG: 97.3 a.u.
